Published values pooled from the literature.
A part holds a random share of what one study measured. Several values in a cell are separate wells, animals, samples, runs or records.
Chain of UniProt P23443 (whole entry, looked up): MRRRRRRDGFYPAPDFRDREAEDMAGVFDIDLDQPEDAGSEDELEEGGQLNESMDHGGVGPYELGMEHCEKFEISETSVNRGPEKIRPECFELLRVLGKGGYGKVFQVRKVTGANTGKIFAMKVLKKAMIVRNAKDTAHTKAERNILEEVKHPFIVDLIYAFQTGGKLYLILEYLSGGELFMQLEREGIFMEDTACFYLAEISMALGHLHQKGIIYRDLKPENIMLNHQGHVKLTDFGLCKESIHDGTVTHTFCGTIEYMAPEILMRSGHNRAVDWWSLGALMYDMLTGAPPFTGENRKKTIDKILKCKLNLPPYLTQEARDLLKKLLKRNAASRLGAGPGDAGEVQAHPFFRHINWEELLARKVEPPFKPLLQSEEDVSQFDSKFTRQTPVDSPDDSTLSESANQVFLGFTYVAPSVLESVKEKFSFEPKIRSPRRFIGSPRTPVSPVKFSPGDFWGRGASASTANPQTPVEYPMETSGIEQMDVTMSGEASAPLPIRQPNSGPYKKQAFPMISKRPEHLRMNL
Chain of UniProt Q32MK0 (whole entry, looked up): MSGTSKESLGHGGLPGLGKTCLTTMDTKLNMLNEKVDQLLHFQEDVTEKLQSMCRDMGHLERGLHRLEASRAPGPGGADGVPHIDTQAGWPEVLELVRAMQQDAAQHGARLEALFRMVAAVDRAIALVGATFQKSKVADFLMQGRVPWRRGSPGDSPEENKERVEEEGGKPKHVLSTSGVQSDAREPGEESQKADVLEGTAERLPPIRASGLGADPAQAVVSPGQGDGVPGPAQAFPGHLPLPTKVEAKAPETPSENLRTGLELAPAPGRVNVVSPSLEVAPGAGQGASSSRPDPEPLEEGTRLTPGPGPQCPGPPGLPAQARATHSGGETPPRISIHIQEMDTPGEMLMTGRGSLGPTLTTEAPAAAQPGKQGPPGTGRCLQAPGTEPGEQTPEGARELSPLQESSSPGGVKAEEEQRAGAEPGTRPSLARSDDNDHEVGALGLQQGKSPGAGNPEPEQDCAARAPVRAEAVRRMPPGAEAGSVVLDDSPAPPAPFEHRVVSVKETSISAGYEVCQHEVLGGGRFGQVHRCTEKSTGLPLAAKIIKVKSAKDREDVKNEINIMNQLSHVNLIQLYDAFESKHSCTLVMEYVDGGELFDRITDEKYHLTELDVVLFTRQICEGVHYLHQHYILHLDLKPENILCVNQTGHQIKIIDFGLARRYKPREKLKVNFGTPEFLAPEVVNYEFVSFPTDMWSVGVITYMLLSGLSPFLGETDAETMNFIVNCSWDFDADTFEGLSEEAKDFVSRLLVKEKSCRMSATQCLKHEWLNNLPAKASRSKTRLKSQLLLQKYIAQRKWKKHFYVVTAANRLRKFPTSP
Chain of UniProt Q6PHR2 (whole entry, looked up): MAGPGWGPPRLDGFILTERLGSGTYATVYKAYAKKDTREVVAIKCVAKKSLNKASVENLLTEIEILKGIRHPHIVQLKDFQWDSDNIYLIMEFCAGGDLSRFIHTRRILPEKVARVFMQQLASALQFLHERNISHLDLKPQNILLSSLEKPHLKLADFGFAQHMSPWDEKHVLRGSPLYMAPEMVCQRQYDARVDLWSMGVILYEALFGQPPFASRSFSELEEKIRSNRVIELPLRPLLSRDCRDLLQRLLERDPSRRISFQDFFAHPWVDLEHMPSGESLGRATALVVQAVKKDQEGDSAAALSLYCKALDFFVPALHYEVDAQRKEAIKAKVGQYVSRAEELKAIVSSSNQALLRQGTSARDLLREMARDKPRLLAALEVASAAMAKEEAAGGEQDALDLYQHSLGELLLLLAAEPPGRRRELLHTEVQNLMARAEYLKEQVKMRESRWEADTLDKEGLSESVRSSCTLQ
Chain of UniProt P80192 (whole entry, looked up): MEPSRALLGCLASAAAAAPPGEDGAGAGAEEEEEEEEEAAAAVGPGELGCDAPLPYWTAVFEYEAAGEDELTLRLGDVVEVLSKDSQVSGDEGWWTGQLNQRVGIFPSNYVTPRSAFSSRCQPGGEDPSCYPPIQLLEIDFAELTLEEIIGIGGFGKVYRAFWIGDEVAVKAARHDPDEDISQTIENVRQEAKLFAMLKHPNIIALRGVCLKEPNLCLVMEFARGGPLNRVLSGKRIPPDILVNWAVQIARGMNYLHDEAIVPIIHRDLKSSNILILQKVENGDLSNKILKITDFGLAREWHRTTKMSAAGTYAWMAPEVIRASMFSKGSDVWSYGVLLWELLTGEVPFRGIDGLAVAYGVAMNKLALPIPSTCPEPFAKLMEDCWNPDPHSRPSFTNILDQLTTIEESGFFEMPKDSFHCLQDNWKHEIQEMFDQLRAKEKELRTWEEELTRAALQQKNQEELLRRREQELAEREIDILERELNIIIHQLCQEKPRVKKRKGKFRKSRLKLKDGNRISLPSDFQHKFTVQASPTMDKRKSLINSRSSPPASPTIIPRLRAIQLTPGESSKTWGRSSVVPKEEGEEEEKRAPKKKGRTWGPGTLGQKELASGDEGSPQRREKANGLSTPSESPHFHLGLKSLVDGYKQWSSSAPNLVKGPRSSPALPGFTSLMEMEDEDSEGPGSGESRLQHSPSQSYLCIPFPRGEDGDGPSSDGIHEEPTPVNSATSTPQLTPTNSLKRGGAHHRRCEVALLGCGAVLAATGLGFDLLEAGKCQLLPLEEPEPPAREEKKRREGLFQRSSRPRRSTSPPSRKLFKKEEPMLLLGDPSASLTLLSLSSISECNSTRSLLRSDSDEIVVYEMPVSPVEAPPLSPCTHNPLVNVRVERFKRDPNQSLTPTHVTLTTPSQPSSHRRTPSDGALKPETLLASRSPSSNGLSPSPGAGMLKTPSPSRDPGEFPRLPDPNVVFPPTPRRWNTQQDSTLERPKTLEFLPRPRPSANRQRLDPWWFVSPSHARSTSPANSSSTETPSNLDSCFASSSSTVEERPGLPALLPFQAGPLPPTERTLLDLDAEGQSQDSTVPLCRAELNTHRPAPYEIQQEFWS
Chain of UniProt O75582 (whole entry, looked up): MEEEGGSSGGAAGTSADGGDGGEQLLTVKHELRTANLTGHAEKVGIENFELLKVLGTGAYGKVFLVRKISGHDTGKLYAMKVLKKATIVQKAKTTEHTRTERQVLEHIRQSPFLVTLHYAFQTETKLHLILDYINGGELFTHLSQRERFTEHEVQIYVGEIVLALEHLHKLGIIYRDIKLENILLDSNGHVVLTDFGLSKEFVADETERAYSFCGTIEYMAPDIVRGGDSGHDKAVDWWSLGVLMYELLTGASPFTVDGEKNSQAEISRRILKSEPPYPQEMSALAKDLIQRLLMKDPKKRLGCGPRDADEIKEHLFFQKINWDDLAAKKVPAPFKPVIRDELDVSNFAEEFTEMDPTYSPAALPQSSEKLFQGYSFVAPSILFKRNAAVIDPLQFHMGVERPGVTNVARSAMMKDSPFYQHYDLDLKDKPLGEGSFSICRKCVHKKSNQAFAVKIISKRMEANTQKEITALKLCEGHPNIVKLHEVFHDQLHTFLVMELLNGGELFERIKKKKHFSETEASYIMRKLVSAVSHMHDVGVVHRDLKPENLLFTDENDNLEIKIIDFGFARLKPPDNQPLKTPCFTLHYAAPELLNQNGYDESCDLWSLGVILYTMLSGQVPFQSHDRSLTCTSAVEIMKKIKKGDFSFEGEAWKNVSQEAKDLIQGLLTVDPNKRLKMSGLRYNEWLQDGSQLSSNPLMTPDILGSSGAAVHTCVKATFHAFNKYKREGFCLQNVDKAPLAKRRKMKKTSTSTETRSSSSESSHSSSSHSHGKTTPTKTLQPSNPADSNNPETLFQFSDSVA
Chain of UniProt Q9H2K8 (whole entry, looked up): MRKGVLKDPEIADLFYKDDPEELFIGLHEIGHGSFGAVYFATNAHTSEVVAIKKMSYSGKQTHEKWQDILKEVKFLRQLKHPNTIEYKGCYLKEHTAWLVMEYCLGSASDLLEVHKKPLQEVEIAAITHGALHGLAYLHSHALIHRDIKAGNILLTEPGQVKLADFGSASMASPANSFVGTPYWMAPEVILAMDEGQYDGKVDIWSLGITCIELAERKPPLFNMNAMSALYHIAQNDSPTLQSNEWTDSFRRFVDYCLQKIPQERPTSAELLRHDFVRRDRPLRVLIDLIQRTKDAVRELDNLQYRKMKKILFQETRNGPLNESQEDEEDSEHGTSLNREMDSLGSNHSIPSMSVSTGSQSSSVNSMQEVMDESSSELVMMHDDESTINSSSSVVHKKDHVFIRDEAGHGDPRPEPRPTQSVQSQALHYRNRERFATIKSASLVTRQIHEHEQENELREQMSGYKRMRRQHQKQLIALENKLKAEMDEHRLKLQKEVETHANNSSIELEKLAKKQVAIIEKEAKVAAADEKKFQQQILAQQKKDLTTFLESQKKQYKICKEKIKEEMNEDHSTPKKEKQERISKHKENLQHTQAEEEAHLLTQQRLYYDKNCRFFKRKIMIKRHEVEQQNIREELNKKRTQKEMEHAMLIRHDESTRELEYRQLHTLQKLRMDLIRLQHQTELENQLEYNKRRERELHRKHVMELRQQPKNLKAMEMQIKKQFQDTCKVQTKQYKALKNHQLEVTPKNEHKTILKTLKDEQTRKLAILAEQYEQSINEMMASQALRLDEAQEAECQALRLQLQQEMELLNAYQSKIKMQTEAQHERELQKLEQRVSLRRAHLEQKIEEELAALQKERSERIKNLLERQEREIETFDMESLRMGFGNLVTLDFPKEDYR

Block 1 — organism: Plasmodium berghei; action: inhibitor; cell line: Huh-7; strain: GFP-expressing sporozoites, liver stage; concentration: 10 µM; time: 24 h; reference: untreated control
Structure (SMILES) | infection rate [%]
CC(C)/N=c1\cc2n(-c3ccc(Cl)cc3)c3ccccc3nc-2cc1Nc1ccc(Cl)cc1 | 105
NC(=O)c1ccc([N+](=O)[O-])cc1Cl | 104
CC(=O)NCCCS(=O)(=O)O | 109
CC1(C)[C@@H]2CC[C@@]1(C)C(=O)C2 | 118
CCOc1nc2cccc(C(=O)OC(C)OC(=O)OC3CCCCC3)c2n1Cc1ccc(-c2ccccc2-c2nn[nH]n2)cc1 (stereo not drawn) | 97.8
Clc1cccc(Cl)c1NC1=NCCN1 | 99.9

Block 2 — cell line: mouse MPNST tumor cells; technique: high-content nuclear imaging; item: cell number; concentration: 10 µM; time: 12 h; notes: mean of 2 replicates; reference: plate mean; reading: higher = more cells
SMILES | nuclei count
N=C(N)NC(=O)Cc1c(Cl)cccc1Cl | 1.75 z-score and 0.945 z-score
CN1C(=O)c2sccc2N(C)c2nc(Nc3ccc(S(N)(=O)=O)cc3)ncc21 | -2.01 z-score
c1ccc2c(c1)CCCC2C1=NCCN1 (stereo not drawn) | 0.58 z-score
Cn1c(=O)c2[nH]c(C3CCCC3)nc2n(C)c1=O | 0.267 z-score
CCN(CC)Cc1ccc2cc(COC(=O)Nc3ccc(C(=O)NO)cc3)ccc2c1 | -3.49 z-score
CNC(=O)c1ccc2c(c1)CCO[C@H]2CCN1CCN(c2ccc(C(N)=O)cc2)CC1 | -1.18 z-score
COc1ccccc1OCC(O)CO (stereo not drawn) | 1.57 z-score
CN(C)CCCSC(=N)N | -0.0414 z-score
O=C(NC1Cc2ccccc2N(C[C@@H](O)CO)C1=O)c1cc2cc(Cl)sc2[nH]1 (stereo partly drawn) | 0.709 z-score

Block 3 — effect on: cell-free assay; technique: competition with immobilised ligand; concentration: 1 µM
Structure (SMILES): CCC(=O)N[C@@H]1CC[C@H](C(=O)N(C)c2ccc(-c3nc4ccccc4o3)cc2)C1
target | remaining binding
MAP3K9 (Homo sapiens, UniProt P80192) | 100%
Ribosomal protein S6 kinase alpha-5, N-terminal kinase domain (RPS6KA5, Homo sapiens, UniProt O75582) | 75%
ULK3 (Homo sapiens, UniProt Q6PHR2) | 66%
EPHA8 (Homo sapiens, UniProt P29322) | 100%
RPS6KB1 (Homo sapiens, UniProt P23443) | 93%
Non-receptor tyrosine-protein kinase TYK2, JH1 (TYK2, Homo sapiens, UniProt P29597) | 100%
EGFR (Homo sapiens, UniProt P00533, del746-750) | 62%
Ribosomal protein S6 kinase alpha-6, N-terminal kinase domain (RPS6KA6, Homo sapiens, UniProt Q9UK32) | 84%
TAOK3 (Homo sapiens, UniProt Q9H2K8) | 87%
MYLK3 (Homo sapiens, UniProt Q32MK0) | 100%
DDR2 (Homo sapiens, UniProt Q16832) | 92%
Tyrosine-protein kinase ABL1, phosphorylated (ABL1, Homo sapiens, UniProt P00519, H396P) | 92%
EGFR (Homo sapiens, UniProt P00533, T790M) | 96%
CDKL2 (Homo sapiens, UniProt Q92772) | 100%

Further values, each from its own experiment
Compound | test | system | conditions | how to read | quantity | value
CC(=O)N[C@@H](Cc1c[nH]c2ccccc12)C(=O)N[C@@H](CCC(=O)C=[N+]=[N-])C(=O)OC(C)C | UPLC-MS/MS | EL4 tumor, C57BL/6 CES1-/- mice, tumor | subcutaneous, 0.3 mg/kg DON equivalent daily, 5 days | higher = more metabolite | thiamin level | 1.33e+07 a.u. and 1.12e+07 a.u. and 8.99e+06 a.u. and 1.11e+07 a.u. and 6.66e+06 a.u. and 1.1e+07 a.u.

Some of these lines once more (block 3):
target | remaining binding
RPS6KB1 (Homo sapiens, UniProt P23443) | 93%
ULK3 (Homo sapiens, UniProt Q6PHR2) | 66%
